Experimental data from different studies.
Each numbered part is a random draw from the data of one study; scales do not carry over between parts. Values joined by “and” are separate records of one study, mostly repeats; a detail may differ.
Sequence of UniProt O00506 (whole entry, looked up): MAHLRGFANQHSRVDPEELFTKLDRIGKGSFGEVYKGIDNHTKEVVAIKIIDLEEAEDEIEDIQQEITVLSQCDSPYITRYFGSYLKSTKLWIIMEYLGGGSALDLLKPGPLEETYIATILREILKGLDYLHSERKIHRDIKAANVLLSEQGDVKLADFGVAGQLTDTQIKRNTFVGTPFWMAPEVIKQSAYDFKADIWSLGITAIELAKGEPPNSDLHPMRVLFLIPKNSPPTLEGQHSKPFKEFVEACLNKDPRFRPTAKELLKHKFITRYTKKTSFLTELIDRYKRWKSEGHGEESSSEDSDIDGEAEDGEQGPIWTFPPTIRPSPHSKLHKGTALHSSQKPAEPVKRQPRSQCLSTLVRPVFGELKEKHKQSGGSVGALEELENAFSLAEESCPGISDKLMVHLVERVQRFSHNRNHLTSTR
Sequence of UniProt Q16539 (whole entry, looked up): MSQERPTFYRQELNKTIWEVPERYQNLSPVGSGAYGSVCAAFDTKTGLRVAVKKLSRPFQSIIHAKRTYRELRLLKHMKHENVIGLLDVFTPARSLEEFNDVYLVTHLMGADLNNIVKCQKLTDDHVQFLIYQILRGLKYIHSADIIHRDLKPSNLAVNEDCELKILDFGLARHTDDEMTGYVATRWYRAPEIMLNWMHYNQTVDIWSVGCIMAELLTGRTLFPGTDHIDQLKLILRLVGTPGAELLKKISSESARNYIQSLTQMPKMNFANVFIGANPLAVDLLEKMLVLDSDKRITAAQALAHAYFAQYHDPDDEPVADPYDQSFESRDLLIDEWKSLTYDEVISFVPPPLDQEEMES
Sequence of UniProt P53779 (whole entry, looked up): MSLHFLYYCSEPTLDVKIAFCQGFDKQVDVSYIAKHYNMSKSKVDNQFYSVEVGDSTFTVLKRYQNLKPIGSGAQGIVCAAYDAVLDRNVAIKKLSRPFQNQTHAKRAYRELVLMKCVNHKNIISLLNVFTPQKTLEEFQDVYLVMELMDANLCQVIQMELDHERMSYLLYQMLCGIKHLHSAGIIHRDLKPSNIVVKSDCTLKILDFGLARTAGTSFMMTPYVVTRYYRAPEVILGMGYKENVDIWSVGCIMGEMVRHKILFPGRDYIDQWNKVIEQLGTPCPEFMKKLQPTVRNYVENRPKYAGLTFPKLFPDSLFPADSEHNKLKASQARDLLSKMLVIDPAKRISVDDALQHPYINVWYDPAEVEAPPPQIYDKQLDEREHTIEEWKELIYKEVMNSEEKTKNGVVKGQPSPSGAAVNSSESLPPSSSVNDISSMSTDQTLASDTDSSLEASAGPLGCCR
Sequence of UniProt Q9Y243 (whole entry, looked up): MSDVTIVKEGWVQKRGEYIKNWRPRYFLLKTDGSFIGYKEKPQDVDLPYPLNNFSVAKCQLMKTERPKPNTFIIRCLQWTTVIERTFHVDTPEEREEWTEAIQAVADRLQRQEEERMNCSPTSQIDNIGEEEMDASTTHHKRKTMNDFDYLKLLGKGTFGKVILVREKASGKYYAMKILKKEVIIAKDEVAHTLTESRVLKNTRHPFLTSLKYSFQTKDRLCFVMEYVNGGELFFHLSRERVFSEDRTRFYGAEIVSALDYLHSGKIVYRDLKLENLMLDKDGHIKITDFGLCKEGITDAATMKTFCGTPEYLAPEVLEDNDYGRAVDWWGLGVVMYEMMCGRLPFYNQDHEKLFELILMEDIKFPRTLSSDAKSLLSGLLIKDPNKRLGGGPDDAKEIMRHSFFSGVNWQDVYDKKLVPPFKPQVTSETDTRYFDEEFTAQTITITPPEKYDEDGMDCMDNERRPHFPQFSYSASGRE
Sequence of UniProt Q96PN8 (whole entry, looked up): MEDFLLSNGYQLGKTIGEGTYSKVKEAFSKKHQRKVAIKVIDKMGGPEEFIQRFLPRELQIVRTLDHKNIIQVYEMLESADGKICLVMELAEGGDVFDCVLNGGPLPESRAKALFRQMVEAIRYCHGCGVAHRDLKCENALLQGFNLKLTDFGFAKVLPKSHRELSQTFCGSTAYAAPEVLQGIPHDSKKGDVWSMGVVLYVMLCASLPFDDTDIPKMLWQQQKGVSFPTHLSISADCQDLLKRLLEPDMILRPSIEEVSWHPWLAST

Series 1
Target: Casein kinase I isoform alpha (CSNK1A1, Homo sapiens, UniProt P48729)
Sequence of UniProt P48729 (whole entry, looked up): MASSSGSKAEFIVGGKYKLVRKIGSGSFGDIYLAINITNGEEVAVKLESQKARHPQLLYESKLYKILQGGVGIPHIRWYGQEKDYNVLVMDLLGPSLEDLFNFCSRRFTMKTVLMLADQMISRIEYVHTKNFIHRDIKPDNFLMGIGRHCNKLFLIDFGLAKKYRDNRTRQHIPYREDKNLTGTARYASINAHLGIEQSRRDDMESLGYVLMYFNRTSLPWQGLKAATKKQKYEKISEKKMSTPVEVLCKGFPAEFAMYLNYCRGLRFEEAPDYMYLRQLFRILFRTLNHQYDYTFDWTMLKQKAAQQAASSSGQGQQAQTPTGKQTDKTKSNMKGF
Observed: enzyme activity
Mode: inhibitor
Concentration: 0.5 µM
Reference: control
| Structure (SMILES) | remaining activity |
| --- | --- |
| Cc1cccc(-c2[nH]c(C(C)(C)C)nc2-c2ccc3c(c2)OCO3)n1 | 96.5% |
| O=c1c2ccccc2[nH]c(=S)n1CCN1CCC(=C(c2ccc(F)cc2)c2ccc(F)cc2)CC1 | 106% |
| O=C(CCCc1ccc(-c2ccccc2F)cc1)Nc1ccc(O)cc1 | 101% |
| COc1cc2ncnc(Nc3ccc(Oc4ccccc4)cc3)c2cc1OC | 98.2% |
| CCOC(=O)c1c(C)[nH]c(/C=C2\C(=O)Nc3ccccc32)c1C | 98.6% |
| O=C(Nc1cccc(Nc2cc(Nc3cccc(C(F)(F)F)c3)ncn2)c1)C1CC1 | 102% |
| COc1ccc(C(=O)Nc2sc3c(c2C(N)=O)CCCC3)cc1OC | 108% |
| N#CC(C#N)=C(N)/C(C#N)=C/c1ccc(O)cc1 | 85% |
| Cn1c2ccccc2c2c3c(c4c5ccccc5n(CCC#N)c4c21)CNC3=O | 75.4% |
| O=C(O)c1ccc2c3c1cccc3c(=O)n1c3ccccc3nc21 | 97.6% |
| CNC(=O)c1cc(Oc2ccc(NC(=O)Nc3ccc(Cl)c(C(F)(F)F)c3)cc2)ccn1 | 97.8% |
| O=C1NC(=O)C(c2cn(CCCO)c3ncccc23)=C1c1cnccn1 | 67% |
| COc1ccc(CNC(=O)Nc2ncc([N+](=O)[O-])s2)cc1 | 92.4% |
| Cc1nc(-c2ccccc2)c(-c2ccncc2)o1 | 86.4% |
| OCC(O)CCON=C1C(c2c(O)[nH]c3ccccc23)=Nc2ccccc21 (stereo not shown) | 84.8% |

Series 2
Cell line: mouse MPNST tumor cells
Technique: high-content nuclear imaging
Item: cell number
Concentration: 10 µM
Time: 12 h
Setting: mean of 2 replicates
Reference: plate mean
Reading: higher = more cells
| Compound | nuclei count [z-score] |
| --- | --- |
| CN(C)/N=N/c1[nH]cnc1C(N)=O | 0.153 |
| CN1C(C(=O)Nc2ccccn2)=C(O)c2ccccc2S1(=O)=O | 0.106 |
| NC(=O)[C@@H](CCC(F)(F)F)N(Cc1ccc(-c2ncon2)cc1F)S(=O)(=O)c1ccc(Cl)cc1 | 2.18 |
| Cc1cc(C)c(/C=C2\C(=O)Nc3ccccc32)[nH]1 | -1.1 |

Series 3
Structure (SMILES): O=C(Nc1cccnn1)N1CC(C/C=C/c2cncc(Oc3ccc(C(F)(F)F)cn3)n2)C1
Observed: cell-free assay
Technique: competition with immobilised ligand
Concentration: 1 µM
| target | remaining binding [%] |
| --- | --- |
| AKT3 (Homo sapiens, UniProt Q9Y243) | 100 |
| STK25 (Homo sapiens, UniProt O00506) | 91 |
| TSSK3 (Homo sapiens, UniProt Q96PN8) | 98 |
| MAPK10 (Homo sapiens, UniProt P53779) | 77 |
| Tyrosine-protein kinase ABL1, non-phosphorylated (ABL1, Homo sapiens, UniProt P00519, Q252H) | 100 |
| MAPK14 (Homo sapiens, UniProt Q16539) | 100 |

Series 4
Cell line: HuT78
Concentration: 2 µM
Time: 48 h
Reference: untreated
| SMILES | viability [%] |
| --- | --- |
| Oc1ccc(-c2nc(-c3ccc(F)cc3)c(-c3ccncc3)[nH]2)cc1 | 120 |
| Cc1ccc(Nc2nccc(N(C)c3ccc4c(C)n(C)nc4c3)n2)cc1S(N)(=O)=O | 115 |
| CC1(C)CNc2cc(NC(=O)c3cccnc3NCc3ccncc3)ccc21 | 130 |
| NC1(Cc2ccc(Cl)cc2)CCN(c2ncnc3[nH]ccc23)CC1 | 125 |
| O=S(=O)(c1cccc2cnccc12)N1CCCNCC1 | 141 |

Other studies, line by line
| SMILES | species | dose | time | quantity | value |
| --- | --- | --- | --- | --- | --- |
| CN(N=O)C(=O)N[C@@H]1[C@@H](O)[C@H](O)[C@@H](CO)O[C@@H]1O | mice, STZ diabetic neuropathy | dose not given | 28 days after STZ | blood glucose | 525 mg/dL and 489 mg/dL and 496 mg/dL and 505 mg/dL and 600 mg/dL |

Repeated from above (series 2):
| Compound | nuclei count [z-score] |
| --- | --- |
| CN(C)/N=N/c1[nH]cnc1C(N)=O | 0.153 |
| CN1C(C(=O)Nc2ccccn2)=C(O)c2ccccc2S1(=O)=O | 0.106 |
| NC(=O)[C@@H](CCC(F)(F)F)N(Cc1ccc(-c2ncon2)cc1F)S(=O)(=O)c1ccc(Cl)cc1 | 2.18 |
